Experimental data collected from several papers.
Compare with care: the assays were run in different laboratories. Several values in a cell are separate wells, animals, samples, runs or records. ± marks the error that the study gave.

C=CC(=O)Nc1cccc(Cn2ncc3cnc(Nc4cnn(CCOC)c4)nc32)c1 has a binding of 86% (human ERK2; KINOMEscan; 100 nM; relative to: control).
Under “log2 fold change”, c1ccc(-c2n[nH]cc2-c2ccnc3ccccc23)nc1 is recorded as -0.1 (RIM15 (Candida albicans); kinase binding, MIB/MS competition; Candida albicans lysate; 10 µM; relative to: DMSO).
CN1CCCNC(=O)c2cccc(c2)C(=O)NCCCN(C)CCCNc2cccc3c2C(=O)c2cccc(c2C3=O)NCCC1: “log2 fold change” 1.64 (SAS; RNA-seq, item: UBAC2-AS1 mRNA; 1 µM, 6 h; relative to: untreated cells).
Under “log2 fold change”, Cc1ncsc1-c1ccc(C(C)NC(=O)C2CC(O)CN2C(=O)C(NC(=O)CCCCCCCCCCN2CCCC(Nc3ncc(Cl)c(Nc4ccccc4S(=O)(=O)C(C)C)n3)C2)C(C)(C)C)cc1 (stereo not drawn) is recorded as -1.17 (22Rv1; RNA-seq, item: RBM15B mRNA; concentration not given; relative to: DMSO).
The larval motion of Cc1cc(OCCOCCN(C)C)cc(C(C)C)c1 is reported as 16.2 ± 1.3 pixels/frame (zebrafish larvae, 7 dpf; 10 µM, minute 2).
Nc1ncc(-c2cc(-c3cnn(CC(F)(F)F)c3)ncc2F)nc1C(=O)NC1CNCC(F)C1 (stereo not drawn) gave a remaining binding of 95% (PRKCE; KINOMEscan; 1 µM; relative to: DMSO control).
CC(C)c1ccc(N(C)c2ccc3c(c2)OCC[C@H]3CNc2cnccc2C(=O)O)cc1 has an IC50 of 1.31 nM (NCI-H209; cell viability, CellTiter-Glo; 7 days).
CNS(=O)(=O)Nc1nccc(Cc2c(C)c3ccc(Oc4ncccc4F)cc3oc2=O)c1F gave an IC50 of greater than 1000 nM (U-251 MG; cell viability, inhibitor, CellTiter-Glo; 7 days).
For Cn1ncc2cc(-c3cncc(Cl)c3N3CCC4(CCNC4=O)CC3)ccc21, “log2 fold change” read -2.27 (LS174T; gene expression, microarray, item: NPTX1 mRNA; concentration not given, 24 h; relative to: untreated cells).
With CCN(C(=O)c1cc(F)ccc1Oc1nncnc1N1CCC2(C1)CN([C@H](CCCN(C)CCOC)C(C)C)C2)C(C)C the GI50 was greater than 10000 nM (L-363; cell growth or viability; 7 days).
CC(=O)[O-].O.O.O.O.[Co+2].[O-]c1ccc(Br)cc1C=NCCN1CCOCC1 has an inhibition of 34.4% (nitric oxide scavenging; 160 µM).
For CCN(CC)CC(=O)Nc1cccc(-n2cc(-c3ccc4ccc(-c5cn(-c6cccc(NC(=O)CN(CC)CC)c6)nn5)cc4c3)nn2)c1, the fold regulation was -1.39 (RCC4; PCR angiogenesis array, item: PLG; 5 x IC50, 6 h, normoxia; relative to: untreated).
Cc1cc(NC(=O)CCN2CCCCC2)ccc1Br gave a larval motion of 17.5 ± 1.7 pixels/frame (zebrafish larvae, 7 dpf; 10 µM, minute 4).
COC1CN([C@H]2CC[C@H]([C@@]3(C)Oc4c(Cl)cc(C(=O)NCc5c(SC)cc(C)[nH]c5=O)c(C)c4O3)CC2)C1 — result for “log2 fold change”: 0.87 (RNA-seq, item: LOXL1 mouse homolog; mouse, HT-1376 xenograft, whole blood; dose not given; relative to: vehicle).
COc1cccc(OCC(O)CN2CCN(c3ccccc3OC)CC2)c1 (stereo not drawn) has a larval motion of 3.8 ± 1.4 pixels/frame (zebrafish larvae, 7 dpf; 10 µM, minute 2).
C=C(NC(=O)c1csc(-c2nc3c(cc2O)-c2nc(cs2)C(=O)NC(C(C)O)C(=O)NC(=C(C)OC)c2nc(cs2)C(=O)NC2c4nc(cs4)C(=O)NC(COC(=O)c4c5c6c(cccc6n4O)COC(=O)C(OC4CC(C)(O)C(N(C)C)C(C)O4)C2OC5)c2nc-3cs2)n1)C(N)=O (stereo not drawn): “lung bacterial load” 6.52 log10 CFU/lung (Streptococcus pneumoniae; -4, immunocompromised mice, lung; 2 mg/kg/day thrice daily, 24 h post-dose).
The relative co-enrichment of C=CC(=O)N1[C@@H](c2ccc3c(c2)OCO3)c2[nH]c3ccccc3c2C[C@H]1C(=O)N1CCN(C)CC1 is reported as 95% (human cyclin E1 wild type-3xFLAG:CDK2; co-IP with TMT proteomics, item: DHX9; concentration not given, Q08211; relative to: wild type DMSO).
With CN(C)C(=O)c1ccnc(N2Cc3cn(Cc4ccc(F)cc4F)nc3C2)n1 the paired-pulse ratio was 1.2 and 1.11 and 1.23 and 1.05 and 1.19 and 1.49 (mouse, hippocampal slice, Schaffer collaterals; dose not given, interstimulus interval 500; relative to: second over first response).

Excerpt of the above:
Under “log2 fold change”, Cc1ncsc1-c1ccc(C(C)NC(=O)C2CC(O)CN2C(=O)C(NC(=O)CCCCCCCCCCN2CCCC(Nc3ncc(Cl)c(Nc4ccccc4S(=O)(=O)C(C)C)n3)C2)C(C)(C)C)cc1 (stereo not drawn) is recorded as -1.17 (22Rv1; RNA-seq, item: RBM15B mRNA; concentration not given; relative to: DMSO).
The larval motion of Cc1cc(OCCOCCN(C)C)cc(C(C)C)c1 is reported as 16.2 ± 1.3 pixels/frame (zebrafish larvae, 7 dpf; 10 µM, minute 2).
Nc1ncc(-c2cc(-c3cnn(CC(F)(F)F)c3)ncc2F)nc1C(=O)NC1CNCC(F)C1 (stereo not drawn) gave a remaining binding of 95% (PRKCE; KINOMEscan; 1 µM; relative to: DMSO control).
